Measurements gathered from unrelated publications.
± gives the spread as reported. Converted amounts (≈) assume the structure as drawn.

SMILES = O=[N+]([O-])NC1=NCCN1Cc1ccc(Cl)nc1; target or system = Bemisia tabaci; test = leaf-dip bioassay; system = biotype B; conditions = 72 h, adults; scale = baseline: LC50 over susceptible strain; quantity = resistance ratio; value = > 1300
SMILES = CN[C@@](C)(C[18F])C(=O)O; system = SCID mouse U87 xenograft, brain; conditions = 120 min, post injection; quantity = tissue uptake; value = 0.5 ± 0.1 %ID/g
SMILES = S=C=NCc1ccccc1; target or system = influenza virus; test = viral replication; system = MDCK; conditions = 72 h; quantity = IC50; value = > 10 µM
SMILES = Nc1ncnc2c1ncn2C[C@H](O)CO; target or system = vesicular stomatitis virus; test = viral replication; system = HeLa; quantity = EC50; value = > 250 µM
SMILES = CCCCCCCn1c2c([n+](CCCCC)c1C)C(=O)c1ccccc1C2=O; target or system = Mycobacterium tuberculosis variant bovis BCG; test = microbial growth; system = BCG; conditions = 5 days; quantity = MIC90; value = ≤ 0.3 µM
SMILES = CC1=C(c2nc(C)no2)N2C(=O)[C@@H](NC(=O)COc3ccccc3)[C@H]2SC1; target or system = Mycobacterium tuberculosis variant bovis BCG; test = microbial growth; system = BCG; quantity = MIC90; value = > 100 mg/L
SMILES = O=C(O)c1ccncc1; target or system = Mycobacterium tuberculosis variant bovis BCG; test = microbial growth; system = ATCC35734 BCG; conditions = 5 days; quantity = IC50; value = 2700 µM
SMILES = O=C(O)c1cc(O)c2c(c1)[C@H]([C@H]1c3cc(C(=O)O)cc(O)c3C(=O)c3c(O[C@@H]4O[C@H](CO)[C@@H](O)[C@H](O)[C@H]4O)cccc31)c1cccc(O[C@@H]3O[C@H](CO)[C@@H](O)[C@H](O)[C@H]3O)c1C2=O; target or system = influenza virus; test = viral replication; system = MDCK; conditions = 72 h; quantity = IC50; value = > 10 µM
SMILES = CCCCCCCCn1cc(CN2CCC3(CC2)OCCO3)c2ccc(OC)cc21; target or system = Mycobacterium tuberculosis variant bovis BCG; test = microbial growth; system = BCG; quantity = MIC50; value = 1.5 µM (≈ 0.622 µg/mL)
SMILES = CCCCn1c(C)nc2ccccc21; target or system = Mycobacterium tuberculosis variant bovis BCG; test = microbial growth; system = BCG; conditions = 5 days; quantity = MIC90; value = 20 µM
SMILES = Cc1cnc(NC(=O)C2=C(O)c3ccccc3S(=O)(=O)N2C)s1; target or system = influenza virus; test = viral replication; system = MDCK; conditions = 72 h; quantity = IC50; value = > 10 µM
SMILES = Cc1ccc(S(=O)(=O)N2C(=O)CSC2c2ccc(Cl)cc2)cc1 (stereo not shown); target or system = influenza B virus; test = viral cytopathicity, visual CPE scoring; system = MDCK, B/Ned/537/05; quantity = EC50; value = > 100 µM
SMILES = COc1ccc(-c2cc(=O)c3c(O)cc(O)cc3o2)cc1O; target or system = influenza virus; test = viral replication; system = MDCK; conditions = 72 h; quantity = IC50; value = > 10 µM
SMILES = CCC(=O)Nc1cnc(C(=O)O)cn1; target or system = Mycobacterium tuberculosis variant bovis BCG; test = microbial growth; system = ATCC35734 BCG; conditions = 5 days; quantity = IC50; value = 3500 µM
SMILES = CC(=O)N1CCN(c2ccc(OCC3COC(Cn4ccnc4)(c4ccc(Cl)cc4Cl)O3)cc2)CC1 (stereo not shown); target or system = influenza virus; test = viral replication; system = MDCK; conditions = 72 h; quantity = IC50; value = > 10 µM
SMILES = CCC(=O)Nc1cncc(C(=O)O)n1; target or system = Mycobacterium tuberculosis variant bovis BCG; test = microbial growth; system = ATCC35734 BCG; conditions = 5 days; quantity = IC50; value = 200 µM
